Published values from different studies.
Lines come from different studies, so protocols differ. “And” joins repeats or separate records; there may be more than shown. Numbers after ± are the reported error.

| SMILES | assay | system | conditions | scale | Cmax |
| --- | --- | --- | --- | --- | --- |
| COc1cc(Nc2ncc3c(n2)-c2ccc(Cl)cc2C(c2c(F)cccc2OC)=NC3)ccc1C(=O)O | – | human patients, plasma | oral, 40 mg, cycle 1 day 1, together with: pembrolizumab | – | 688 ng/mL |
| Cc1cc(Nc2cc3ncccc3c(N[C@@H]3C[C@H]4CC[C@@H](C3)N4CCC#N)n2)n[nH]1 | – | human, plasma | 30 mg single dose, mean | – | 1.03 ng/mL |
| C[C@H](CCC(=O)NCC(=O)O)[C@H]1CC[C@H]2[C@@H]3CC[C@@H]4C[C@H](O)CC[C@]4(C)[C@H]3C[C@H](O)[C@]12C | – | human, plasma | concentration not given, endogenous baseline diurnal | – | 698 ± 186 nM |
| NC1(C(=O)N[C@@H](CCO)c2ccc(Cl)cc2)CCN(c2nc[nH]c3nccc2-3)CC1 | – | human patients, plasma | dose not given, cohort 160/480, cycle 2, geometric mean | – | 694 ng/mL |
| CC1=C(c2cccc(O)c2)[C@H](c2ccc(OCCN3CC(CF)C3)cc2)Oc2ccc(O)cc21 | – | human, plasma | oral, 600 mg single dose, geometric mean | – | 58 ng/mL |
| Nc1ccc(-c2nc([C@H]3CCc4cc(-c5cc(Cl)ccc5-n5cnnn5)cc(=O)n43)c(F)[nH]2)c(F)n1 | – | human, plasma | oral, 80 mg once daily, day 14 | – | 1040 ng/mL |
| N[C@@H]1c2cccnc2[C@H](OC(=O)N2CCC(n3c(=O)[nH]c4ncccc43)CC2)CC[C@H]1c1cccc(F)c1F | – | human, plasma | oral, 75 mg single dose, alone, geometric mean, itraconazole DDI study | – | 806 ng/mL |
| Cn1cncc1[C@@](N)(c1ccc(Cl)cc1)c1ccc2c(c1)c(-c1cccc(Cl)c1)cc(=O)n2C | – | human | oral, 300 mg/m2, first dose, cycle 1 | – | 2270 ng/mL |
| CC1(COc2ccc3c(c2)ncn3-c2ccc3cccc(N4CCC(N)CC4)c3n2)COC1 | – | human patients, recurrent/progressive HGG or DIPG, serum | oral, 100 mg/m^2, day 28, median | – | 846 nM |
| Cn1cncc1[C@@](N)(c1ccc(Cl)cc1)c1ccc2c(c1)c(-c1cccc(Cl)c1)cc(=O)n2C | – | healthy human subjects, plasma | oral, 50 mg, fed (high-fat meal) | – | 136 ng/mL |
| CCCn1cc(C)c2c(=O)[nH]c(-c3cc(S(=O)(=O)N4CCN(CC)CC4)ccc3OCC)nc21 | – | human, plasma | oral, 100 mg | – | 64.8 ± 32.8 ng/mL |
| COc1cc(Nc2c(C#N)cnc3cc(OCCCN4CCN(C)CC4)c(OC)cc23)c(Cl)cc1Cl | item: total drug | human, mild hepatic impairment, plasma | single dose, Child-Pugh classification | – | 78.1 ng/mL |
| CC1(C)CC[C@]2(NC(=O)C(C)(F)F)CC[C@]3(C)[C@H](C(=O)C=C4[C@@]5(C)C=C(C#N)C(=O)C(C)(C)[C@@H]5CC[C@]43C)[C@@H]2C1 | – | human, plasma | oral, 150 mg, single dose alone, geometric mean | – | 43 ng/mL |
| Cc1ncnc2c1ccn2[C@@H]1C[C@H](Oc2cc(C(F)F)c(F)c3c2CNCC3)[C@@H](O)[C@H]1O | – | human, plasma | 8 mg once daily | – | 142 ng/mL and 58.2 ng/mL |
| CN(CC#N)C(=O)C[C@H](Nc1nc2ccccc2[nH]1)c1cccc(C(F)(F)F)c1 | – | human | intravenous infusion, 6 mg/kg, 1 mg/mL formulation | – | 10300 ± 826 ng/mL |
| C[C@H]1[C@H](OC(=O)CCC(=O)O)O[C@@H]2O[C@@]3(C)CC[C@H]4[C@H](C)CC[C@@H]1[C@@]24OO3 | – | human, both sexes, plasma | oral, dose not given, non-fixed combination | – | 295 ng/mL |
| Cc1cc(-c2nccc3c2ccn3CC(=O)Nc2ccc(-c3cnccn3)cn2)ccn1 | – | human, plasma | oral, 5 mg once daily, day 1, geometric mean | – | 41.8 nM |
| NC(CO)(CO)CCc1ccc(Sc2cccc(OCc3ccccc3)c2)cc1Cl | – | human, fed, whole blood | oral, 3 mg, geometric mean, alone | – | 1.21 ng/mL |
| CN[C@@H](C)C(=O)N[C@H]1CN(S(=O)(=O)c2cccc(S(=O)(=O)N3CC[C@H]4CC[C@@H](C(=O)NC(c5ccccc5)c5ccccc5)N4C(=O)[C@@H](NC(=O)[C@H](C)NC)C3)c2)CC[C@H]2CC[C@@H](C(=O)NC(c3ccccc3)c3ccccc3)N2C1=O | LC-MS/MS, noncompartmental | human, plasma | 20 mg, cycle 1 day 1 | – | 820 ± 543 ng/mL |
| O=C(O)c1cc(/N=N/c2ccc(S(=O)(=O)Nc3ccccn3)cc2)ccc1O | LC-MS | human, plasma | oral, 1000 mg, day 1 | arithmetic mean | 8350 ng/mL |

Some of these lines once more:
| SMILES | assay | system | conditions | scale | Cmax |
| --- | --- | --- | --- | --- | --- |
| C[C@H]1[C@H](OC(=O)CCC(=O)O)O[C@@H]2O[C@@]3(C)CC[C@H]4[C@H](C)CC[C@@H]1[C@@]24OO3 | – | human, both sexes, plasma | oral, dose not given, non-fixed combination | – | 295 ng/mL |
| Cc1cc(-c2nccc3c2ccn3CC(=O)Nc2ccc(-c3cnccn3)cn2)ccn1 | – | human, plasma | oral, 5 mg once daily, day 1, geometric mean | – | 41.8 nM |
